{"data": "Experimental data from different studies", "target": "Myosin light chain kinase, smooth muscle (MYLK, Homo sapiens, UniProt Q15746)", "note": "Protocols differ between the studies behind these lines. “And” joins repeats or separate records; there may be more than shown."}
{"Structure (SMILES)": "NC(=O)[C@@H](O)C[C@H]1CCc2sc3ncnc(O[C@H]4CC[C@H](N5CCOCC5)CC4)c3c21", "assay": "enzyme activity, inhibitor", "setting": "10 µM", "quantity": "inhibition", "value": "4%"}
{"Structure (SMILES)": "COc1cc(Nc2nc(C)cc(-c3cnn4nc(OC)ccc34)n2)cc(C(F)(F)F)c1", "assay": "inhibitor", "setting": "1 µM", "how to read": "reference: control", "quantity": "remaining activity", "value": "58%"}
{"Structure (SMILES)": "CCn1cc(C(=O)O)c(=O)c2c(N)c(F)c(NC3CCCCC3)cc21", "assay": "kinase activity", "setting": "0.1 µM, together with: ATP at Km", "quantity": "inhibition", "value": "10.3%"}
{"Structure (SMILES)": "CNC(=O)C1CCN(c2cc(C)c(F)cc2NC(=O)c2ccc(-c3cc(O)ccc3C)c(C)c2)CC1", "assay": "binding, competition with immobilised ligand", "setting": "1 µM", "quantity": "remaining binding", "value": "93%"}
{"Structure (SMILES)": "Cc1ccc(C)c(-c2ccc3nc(NC(=O)C4CCCCC4)nn3c2)c1", "assay": "enzyme activity, Dundee kinase panel", "setting": "10 µM", "quantity": "remaining activity", "value": "85%"}
{"Structure (SMILES)": "COc1c(Cl)cccc1Nc1c(-c2ccncc2C#C[C@@]2(C)CCCN2C(=O)/C=C/CN(C)C)[nH]c2c1C(=O)NCC2", "assay": "binding, competition with immobilised ligand", "setting": "3 µM", "quantity": "remaining binding", "value": "100%"}
{"Structure (SMILES)": "CNC(=O)C[C@H](Cc1ccc(C#N)cc1)NC(=O)c1cc(-c2ccc(CN[C@H](C)c3ccc(C)cc3)o2)ccc1Cl", "assay": "enzyme activity, inhibitor", "setting": "1 µM", "quantity": "activity vs control", "value": "98%"}
{"Structure (SMILES)": "CN1CC[C@@H](COc2cnc(C#N)cc2-c2ccn3nc(NC(=O)C4CC4)cc3c2)C1", "assay": "enzyme activity, inhibitor", "setting": "1 µM", "quantity": "inhibition", "value": "-18%"}
{"Structure (SMILES)": "N[C@H]1CC[C@H](Nc2nccc(-c3cccnc3Oc3ccc(NC(=O)NC4CC4)c4ccccc34)n2)CC1", "assay": "kinobead competition pulldown", "system": "HEK293/HCT116 lysate mixture", "setting": "10 µM, 1 h, 4 °C", "how to read": "lower = stronger competition", "quantity": "log2 LFQ intensity", "value": "20.7 and 20.9 and 19.6"}
{"Structure (SMILES)": "C=CC(=O)N1Cc2nc(-c3cc(-c4cc(Cl)cnc4Cl)c(F)cc3F)n(-c3ccncn3)c2C1", "assay": "cell-free assay, inhibitor", "setting": "1 µM", "quantity": "inhibition", "value": "-1.8%"}
{"Structure (SMILES)": "Nc1nc(Nc2ccccc2)sc1C(=O)c1ccccc1", "assay": "enzyme activity, inhibitor", "setting": "10 µM", "quantity": "remaining activity", "value": "22%"}
{"Structure (SMILES)": "C=CC(=O)N1CCc2ccc(-n3c(=O)ccc4cnc5ccc(-c6cnn(C)c6)cc5c43)cc21", "assay": "KINOMEscan", "setting": "1 µM", "how to read": "reference: DMSO control", "quantity": "remaining binding", "value": "100%"}
{"Structure (SMILES)": "Cc1cccc(-c2ccc3nc(NC(=O)C4CCCCC4)nn3c2)c1", "assay": "enzyme activity, Dundee kinase panel", "setting": "10 µM", "quantity": "remaining activity", "value": "83%"}
{"Structure (SMILES)": "CCN1CCN(Cc2ccc(C(=O)Nc3ccc(C)c(NCc4cnc5[nH]ccc5c4OC)c3)cc2C(F)(F)F)CC1", "assay": "binding, competition with immobilised ligand", "setting": "1 µM", "quantity": "remaining binding", "value": "100%"}
{"note": "A few entries again:"}
{"Structure (SMILES)": "CNC(=O)C[C@H](Cc1ccc(C#N)cc1)NC(=O)c1cc(-c2ccc(CN[C@H](C)c3ccc(C)cc3)o2)ccc1Cl", "assay": "enzyme activity, inhibitor", "setting": "1 µM", "quantity": "activity vs control", "value": "98%"}
